Assay results from different studies.
Lines come from different studies, so protocols differ. Numbers after ± are the reported error.
B1: enzyme A172S/A173G/C179K/M174T/Q178P (Streptomyces platensis, UniProt A0A0A0V031); chain MQHTTIGDVLREHRRSHPGRTALVDGPVRLTWPELDDRVNRLAGSLAASGIGRGDRIMWLGQNSFRVYELIAAAGKLGAMVCVGYWRWAPPEMEFALRDFDPHLVVWQHQEIHETVARTREALGSDDTARWLRHDSAPQDPDGYEAFLAAGGLADPDLDIDPDSPVLVLYTSGTSGRPKGSLLSHTNLIAMATAAAWLGDIDHTTAFLNSGPMFHIGNHQFWGMPTLLMAGKNVIVRRVVAEEVRDLLVAEECTHAFLMPPTVAEIVRLNRDTGHDLSRLRATVAPHLWEGMATTDTSRFTRSGAAAGRGYGQTELSGFAVTAAYGGPAAGNAGRPGPGLTVRVLDTAGRECAVGEAGEICARGTVVHRGYWNRDEVNAHRFRSGWWHTTDLGRREPDGSLTFLGTTTRMLKSAAENIFPAEVENCIEQHPAVREAAVIGVPNTRWAQDVKAVVVLEPDAGVSEQEIIDHCRPRIASYKKPKSVAFAAALPRTVSGARDYDALDKEYGGGGYPGAATLGPGR
Sequence of UniProt P21729 (whole entry, looked up): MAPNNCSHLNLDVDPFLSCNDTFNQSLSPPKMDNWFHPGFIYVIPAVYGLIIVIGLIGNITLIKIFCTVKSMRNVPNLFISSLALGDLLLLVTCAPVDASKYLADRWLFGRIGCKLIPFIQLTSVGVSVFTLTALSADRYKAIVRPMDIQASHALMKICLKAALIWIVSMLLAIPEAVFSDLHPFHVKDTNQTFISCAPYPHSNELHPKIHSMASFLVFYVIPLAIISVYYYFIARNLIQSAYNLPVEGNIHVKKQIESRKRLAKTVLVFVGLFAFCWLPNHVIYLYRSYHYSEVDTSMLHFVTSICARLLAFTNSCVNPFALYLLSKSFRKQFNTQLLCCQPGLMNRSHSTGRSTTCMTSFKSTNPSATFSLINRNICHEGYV

Molecule | target or system | assay | test system | conditions | how to read | quantity | value
N=C(N)NCCC[C@@H]1NC(=O)[C@H](CCCCNC(=O)CNC(=O)CNC(=O)CNC(=O)CC[C@H](NC(=O)CCOCCOCCOCCOCCNC(=O)CC[C@H](NC(=O)CN2CCN(CC(=O)O)CCN(CC(=O)O)CCN(CC(=O)O)CC2)C(=O)NCCOCCOCCOCCOCCC(=O)N[C@@H](CCC(=O)NCC(=O)NCC(=O)NCC(=O)NCCCC[C@@H]2NC(=O)[C@@H](Cc3ccccc3)NC(=O)[C@H](CC(=O)O)NC(=O)CNC(=O)[C@H](CCCNC(=N)N)NC2=O)C(=O)NCC(=O)NCC(=O)NCC(=O)NCCCC[C@@H]2NC(=O)[C@@H](Cc3ccccc3)NC(=O)[C@H](CC(=O)O)NC(=O)CNC(=O)[C@H](CCCNC(=N)N)NC2=O)C(=O)NCC(=O)NCC(=O)NCC(=O)NCCCC[C@@H]2NC(=O)[C@@H](Cc3ccccc3)NC(=O)[C@H](CC(=O)O)NC(=O)CNC(=O)[C@H](CCCNC(=N)N)NC2=O)NC(=O)[C@@H](Cc2ccccc2)NC(=O)[C@H](CC(=O)O)NC(=O)CNC1=O [indium-111 labelled] |  | planar imaging | athymic nude mouse, U-87 MG xenograft, tumour | intravenous |  | retention half-life | > 30 h
CCCC[C@H](NC(=O)CCCCCCCNC(=O)c1ccc(NN)nc1)C(=O)N[C@H]1CC(=O)NCCCC[C@@H](C(N)=O)NC(=O)[C@H](Cc2c[nH]c3ccccc23)NC(=O)[C@H](CCCNC(=N)N)NC(=O)[C@@H](Cc2ccccc2)NC(=O)[C@H](Cc2c[nH]cn2)NC1=O [technetium-99m labelled] |  |  | C57 mouse, B16/F1 melanoma, liver | intravenous, 24 h |  | uptake | 0.36 ± 0.01 %ID/g
CCCNC(=O)[C@H](CC(C)C)NC(=O)[C@H](Cc1c[nH]cn1)NC(=O)CNC(=O)[C@@H](NC(=O)[C@H](C)NC(=O)[C@H](Cc1c[nH]c2ccccc12)NC(=O)[C@H](CCC(N)=O)NC(=O)[C@@H](Cc1ccccc1)NC(=O)CCCCCNC(=O)CN1CCN(CC(=O)O)CCN(CC(=O)O)CCN(CC(=O)O)CC1)C(C)C [indium-111 labelled] | Gastrin-releasing peptide receptor (Mus musculus, UniProt P21729) | biodistribution | CF-1 mice, liver | intravenous, 1 h, unblocked |  | tissue uptake | 0.26 ± 0.07 %ID/g
CC(C)C[C@H](NC(=O)[C@@H]1CCCN1C(=O)[C@H](CCCCN)NC(=O)[C@@H](N)CO)C(=O)N1CCC[C@H]1C(=O)N[C@@H](CCC(=O)O)C(=O)N[C@H](C(=O)N[C@H](C(=O)N[C@@H](CC(=O)O)C(=O)N[C@@H](CCC(=O)O)C(=O)N[C@@H](Cc1ccc(O)cc1)C(=O)N[C@@H](Cc1cn(CCOCCOCCOCCNC(=O)CCc2ccc(O)c(CN(CCN(CC(=O)O)Cc3cc(CCC(=O)NCCCC[C@H](NC(=O)N[C@@H](CCC(=O)O)C(=O)O)C(=O)O)ccc3O)CC(=O)O)c2)nn1)C(=O)O)[C@@H](C)O)C(C)C [gallium-68 labelled] |  |  | NMRI nu/nu mice, LNCaP tumour, pancreas | 135.34 nmol/kg, low molar activity |  | standardized uptake value | 0.05 g/g
N=C(N)NCCC[C@@H]1NC(=O)[C@H](CCCCNC(=O)CCOCCOCCOCCOCCNC(=O)CC[C@H](NC(=O)CCOCCOCCOCCOCCNC(=O)CC[C@H](NC(=O)CN2CCN(CC(=O)O)CCN(CC(=O)O)CCN(CC(=O)O)CC2)C(=O)NCCOCCOCCOCCOCCC(=O)N[C@@H](CCC(=O)NCCOCCOCCOCCOCCC(=O)NCCCC[C@@H]2NC(=O)[C@@H](Cc3ccccc3)NC(=O)[C@H](CC(=O)O)NC(=O)CNC(=O)[C@H](CCCNC(=N)N)NC2=O)C(=O)NCCOCCOCCOCCOCCC(=O)NCCCC[C@@H]2NC(=O)[C@@H](Cc3ccccc3)NC(=O)[C@H](CC(=O)O)NC(=O)CNC(=O)[C@H](CCCNC(=N)N)NC2=O)C(=O)NCCOCCOCCOCCOCCC(=O)NCCCC[C@@H]2NC(=O)[C@@H](Cc3ccccc3)NC(=O)[C@H](CC(=O)O)NC(=O)CNC(=O)[C@H](CCCNC(=N)N)NC2=O)NC(=O)[C@@H](Cc2ccccc2)NC(=O)[C@H](CC(=O)O)NC(=O)CNC1=O [indium-111 labelled] |  |  | female athymic nude mice, intestine | intravenous, 3 µCi, 4 h, U-87 MG glioma xenograft |  | tissue uptake | 10.4 ± 2.03 %ID/g
CCCC[C@H](NC(=O)CNC(=O)CNC(=O)c1ccc(NN)nc1)C(=O)N[C@H]1CC(=O)NCCCC[C@@H](C(N)=O)NC(=O)[C@H](Cc2c[nH]c3ccccc23)NC(=O)[C@H](CCCNC(=N)N)NC(=O)[C@@H](Cc2ccccc2)NC(=O)[C@H](Cc2c[nH]cn2)NC1=O [technetium-99m labelled] |  |  | C57 mouse, B16/F1 melanoma, intestines | intravenous, 24 h |  | uptake | 0.24 ± 0.17 %ID
N=C(N)NCCC[C@@H]1NC(=O)[C@H](CCCCNC(=O)CC[C@H](NC(=O)CCOCCOCCOCCOCCNC(=O)CN2CCN(CC(=O)O)CCN(CC(=O)O)CCN(CC(=O)O)CC2)C(=O)NCCCC[C@@H]2NC(=O)[C@@H](Cc3ccccc3)NC(=O)[C@H](CC(=O)O)NC(=O)CNC(=O)[C@H](CCCNC(=N)N)NC2=O)NC(=O)[C@@H](Cc2ccccc2)NC(=O)[C@H](CC(=O)O)NC(=O)CNC1=O [indium-111 labelled] |  |  | female athymic nude mice, brain | intravenous, 3 µCi, 72 h, U-87 MG glioma xenograft |  | tissue uptake | 0.03 ± 0.01 %ID/g
B1 | C[C@@]12CCC[C@@](C)(C(=O)OP(=O)(O)OC[C@H]3O[C@@H](n4cnc5c(N)ncnc54)[C@H](O)[C@@H]3O)[C@H]1C[C@@H](O)[C@]13C[C@H]4C[C@H](O[C@@]4(C)C1)[C@@H]23 | steady-state kinetics |  | pH 7.8, 25 °C |  | Vmax | 3.06 µmol/min
COC(=O)[C@H](CSSC(C)(C)[C@H](NC(=O)[C@H](CCC(=O)NC[C@H](O)[C@@H](O)[C@H](O)[C@H](O)CO)NC(=O)[C@H](CCC(=O)O)NC(=O)[C@H](CCC(=O)NC[C@H](O)[C@@H](O)[C@H](O)[C@H](O)CO)NC(=O)[C@H](CCC(=O)O)NC(=O)[C@H](CCC(=O)NC[C@H](O)[C@@H](O)[C@H](O)[C@H](O)CO)NC(=O)CC[C@H](NC(=O)c1ccc(NCc2cnc3nc(N)[nH]c(=O)c3n2)cc1)C(=O)O)C(=O)O)NC(=O)CC[C@H](NC(=O)c1ccc(NCc2cnc3nc(N)[nH]c(=N)c3n2)cc1)C(=O)O |  |  | Lewis rat, female, plasma | subcutaneous, 500 nmol/kg |  | Cmax | 682 nM
C=Cc1c(C)c2cc3nc(c4c5[nH]c(cc6nc(cc1[nH]2)C(C)=C6CC)c(C)c5C(=O)C4)[C@@H](CCC(=O)NCC(=O)N1CCC[C@H]1C(=O)N[C@@H](CC(C)C)C(=O)NCC(=O)N[C@@H](Cc1ccccc1)C(=O)N[C@@H](CCCNC(=N)N)C(=O)N[C@H](C(=O)NCC(=O)N[C@@H](CCCCN)C(N)=O)C(C)C)[C@@H]3C | OA patient synovial fibroblasts | flow cytometry |  | 1 µM, 24 h | reference: untreated | mean fluorescence intensity | 55 ± 6 times
CC[C@@]1(O)C(=O)OCc2c1cc1n(c2=O)Cc2cc3cc(OC(=O)CCCC(=O)NCC(=O)N[C@@H](Cc4ccccc4)C(=O)N[C@@H](Cc4ccccc4)C(=O)N[C@@H](Cc4ccc(OP(=O)(O)O)cc4)C(=O)NCCSSCCNC(=O)CCC(=O)N[C@@H](CCC(=O)O)C(=O)N[C@@H](CCCNC(=N)N)C(=O)NCC(=O)N[C@@H](CC(=O)O)C(=O)O)ccc3nc2-1 | HepG2 | TEM | intracellular | 100 µM, 2 h |  | filament diameter | 7 ± 2 nm
N=C(N)NCCC[C@@H]1NC(=O)[C@H](CCCCNC(=O)CCOCCOCCOCCOCCNC(=O)CN2CCN(CC(=O)O)CCN(CC(=O)O)CCN(CC(=O)O)CC2)NC(=O)[C@@H](Cc2ccccc2)NC(=O)[C@H](CC(=O)O)NC(=O)CNC1=O [indium-111 labelled] |  |  | female athymic nude mice, heart | intravenous, 3 µCi, 24 h, U-87 MG glioma xenograft |  | tissue uptake | 0.14 ± 0.01 %ID/g
O=C(O)CC[C@H](NC(=O)N[C@@H](CCCCNC(=O)[C@H](Cc1ccc2ccccc2c1)NC(=O)[C@H]1CC[C@H](CNC(=O)CNC(=O)CNC(=O)CNC(=O)CN2CCN(CC(=O)O)CCN(C(CCC(=O)NCCC[P+](c3ccccc3)(c3ccccc3)c3ccccc3)C(=O)O)CCN(CC(=O)O)CC2)CC1)C(=O)O)C(=O)O (stereo partly shown) [terbium-161 labelled] |  | radio-HPLC | tumour-bearing mice, urine | iv, 5 MBq, 10 min |  | intact radiocomplex | 98.6 ± 1.1%

Repeated from above:
Molecule | target or system | assay | test system | conditions | how to read | quantity | value
CC(C)C[C@H](NC(=O)[C@@H]1CCCN1C(=O)[C@H](CCCCN)NC(=O)[C@@H](N)CO)C(=O)N1CCC[C@H]1C(=O)N[C@@H](CCC(=O)O)C(=O)N[C@H](C(=O)N[C@H](C(=O)N[C@@H](CC(=O)O)C(=O)N[C@@H](CCC(=O)O)C(=O)N[C@@H](Cc1ccc(O)cc1)C(=O)N[C@@H](Cc1cn(CCOCCOCCOCCNC(=O)CCc2ccc(O)c(CN(CCN(CC(=O)O)Cc3cc(CCC(=O)NCCCC[C@H](NC(=O)N[C@@H](CCC(=O)O)C(=O)O)C(=O)O)ccc3O)CC(=O)O)c2)nn1)C(=O)O)[C@@H](C)O)C(C)C [gallium-68 labelled] |  |  | NMRI nu/nu mice, LNCaP tumour, pancreas | 135.34 nmol/kg, low molar activity |  | standardized uptake value | 0.05 g/g
N=C(N)NCCC[C@@H]1NC(=O)[C@H](CCCCNC(=O)CCOCCOCCOCCOCCNC(=O)CN2CCN(CC(=O)O)CCN(CC(=O)O)CCN(CC(=O)O)CC2)NC(=O)[C@@H](Cc2ccccc2)NC(=O)[C@H](CC(=O)O)NC(=O)CNC1=O [indium-111 labelled] |  |  | female athymic nude mice, heart | intravenous, 3 µCi, 24 h, U-87 MG glioma xenograft |  | tissue uptake | 0.14 ± 0.01 %ID/g
